Assay results gathered from unrelated publications.
Protocols differ between the studies behind these lines. “And” joins repeats or separate records; there may be more than shown.
TDP1: Tyrosyl-DNA phosphodiesterase 1 (TDP1, Homo sapiens, UniProt Q9NUW8)
Chain of UniProt Q9NUW8 (whole entry, looked up): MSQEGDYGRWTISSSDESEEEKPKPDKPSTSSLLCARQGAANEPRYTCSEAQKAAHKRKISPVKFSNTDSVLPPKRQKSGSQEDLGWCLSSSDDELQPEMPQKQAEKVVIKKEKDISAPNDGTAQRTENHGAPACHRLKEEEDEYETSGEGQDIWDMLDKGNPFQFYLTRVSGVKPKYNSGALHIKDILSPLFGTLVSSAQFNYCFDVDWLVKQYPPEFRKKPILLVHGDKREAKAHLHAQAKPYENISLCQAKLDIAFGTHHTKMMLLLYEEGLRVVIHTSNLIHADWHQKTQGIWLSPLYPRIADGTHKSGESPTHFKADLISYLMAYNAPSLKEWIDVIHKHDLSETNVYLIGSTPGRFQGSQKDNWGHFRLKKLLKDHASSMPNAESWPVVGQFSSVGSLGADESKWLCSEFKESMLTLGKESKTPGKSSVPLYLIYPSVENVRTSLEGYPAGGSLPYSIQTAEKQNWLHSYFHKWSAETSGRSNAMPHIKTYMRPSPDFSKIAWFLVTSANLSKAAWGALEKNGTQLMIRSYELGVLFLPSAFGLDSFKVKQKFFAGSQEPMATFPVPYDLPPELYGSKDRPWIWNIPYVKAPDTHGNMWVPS
SRPK2: SRSF protein kinase 2 (SRPK2, Homo sapiens, UniProt P78362)

| SMILES | target | test | setting | scale | quantity | value |
| --- | --- | --- | --- | --- | --- | --- |
| CS(=O)(=O)c1ccc(C=NOCc2ccc(-c3nc4cc(-c5ccccc5)ccn4c3Nc3ccc(C(=O)O)cc3)cc2)c(Cl)c1 | TDP1 | enzyme activity, inhibitor | 100 µM, unpurified compound |  | inhibition | 55.8% |
| C=CC(=O)Nc1cccc(-c2cnc3[nH]cc(C(=O)NC(C)(C)C)c3n2)c1 | SRPK2 | enzyme activity, inhibitor | 0.1 µM |  | inhibition | 2% |
| CN1CC[C@@H](COc2cnc(C#N)cc2-c2ccn3nc(NC(=O)C4CC4)cc3c2)C1 | SRPK2 | enzyme activity, inhibitor | 1 µM |  | inhibition | 12% |
| Cc1ccc(-c2nn(-c3ccccc3)cc2C=NOCc2ccc3nc(-c4ccccc4)c(Nc4ccc(C(=O)O)cc4)n3c2)o1 | TDP1 | enzyme activity, inhibitor | 100 µM, unpurified compound |  | inhibition | 58.9% |
| Cc1cccc(O[C@H]2CCC[C@@H](C(C)CNCc3ccncc3)C2)c1 (relative stereo) | SRPK2 | enzyme activity, inhibitor | 1 µM |  | inhibition | -3% |
| COc1c(OCCCN2CCOCC2)ccc2c1N=C(NC(=O)c1cnc(N)nc1)N1CCN=C21 | SRPK2 | kinase activity, inhibitor | 1 µM | baseline: untreated control | remaining activity | 125% |
| CCN1CCN(Cc2ccc(C(=O)Nc3ccc(C)c(NCc4cnc5[nH]ccc5c4OC)c3)cc2C(F)(F)F)CC1 | SRPK2 | binding, competition with immobilised ligand | 1 µM |  | remaining binding | 100% |
| CCn1cc(C(=O)O)c(=O)c2c(N)c(F)c(NC3CCCCC3)cc21 | SRPK2 | kinase activity | 0.1 µM, together with: ATP at Km |  | inhibition | -0.3% |
| COCC12C(=O)NC3C4(C(OC)CC1O)C1CC5(O)C(OC)C(O)C(OC(C)=O)(C1C5OC(=O)c1ccccc1)C3(O)C(OC)C24 (stereo not drawn) | SRPK2 | kinase activity, inhibitor, ProQinase kinase profiling | 25 µM | baseline: control | remaining activity | 108% and 100% |
| Cc1nc2c(F)cc(-c3nc(Nc4ccc(CNC(=O)CCCCCCC(=O)NO)cc4)ncc3F)cc2n1C(C)C | SRPK2 | enzyme activity, inhibitor | 1 µM |  | inhibition | 48% |
| Nc1ncc(-c2cc(-c3cnn(CC(F)(F)F)c3)ncc2F)nc1C(=O)NC1CNCC(F)C1 (stereo not drawn) | SRPK2 | enzyme activity | 1 µM | baseline: DMSO control | remaining activity | 94.9% |
| COc1c(Cl)cccc1Nc1c(-c2ccncc2C#C[C@@]2(C)CCCN2C(=O)/C=C/CN(C)C)[nH]c2c1C(=O)NCC2 | SRPK2 | binding, competition with immobilised ligand | 3 µM |  | remaining binding | 81% |
| CNC(=O)C[C@H](Cc1ccc(C#N)cc1)NC(=O)c1cc(-c2ccc(CN[C@H](C)c3ccc(C)cc3)o2)ccc1Cl | SRPK2 | enzyme activity, inhibitor | 1 µM |  | activity vs control | 104% |
| N#Cc1ccc(NC(=O)Nc2ccccc2)cc1 | SRPK2 | enzyme activity, inhibitor, FRET | 10 µM |  | inhibition | 7.8% |
| CNC1C[S+]2CC[S+]3CC[S+](C1)[Ru-4]321([N]=C=S)[n]2c3ccc(OC)cc3c3c4c(c5cc(F)c[n+]1c5c32)C(=O)NC4=O (stereo not drawn) | SRPK2 | KinomeScan | 0.1 µM | baseline: untreated | remaining binding | 82% |
| N#Cc1ccc(NC(=O)Nc2ccccc2O)cc1 | SRPK2 | enzyme activity, inhibitor, FRET | 10 µM |  | inhibition | 18% |
| COc1cc(Nc2nc(C)cc(-c3cnn4nc(OC)ccc34)n2)cc(C(F)(F)F)c1 | SRPK2 | binding, competition with immobilised ligand | 1 µM |  | remaining binding | 100% |
| O=C(Nc1ccccc1)Nc1cccc(O)c1 | SRPK2 | enzyme activity, inhibitor, FRET | 10 µM |  | inhibition | 9.1% |
| CNC(=O)C1CCN(c2cc(C)c(F)cc2NC(=O)c2ccc(-c3cc(O)ccc3C)c(C)c2)CC1 | SRPK2 | binding, competition with immobilised ligand | 1 µM |  | remaining binding | 94% |
| NC(=O)C[C@H]1CCc2sc3ncnc(O[C@H]4CC[C@H](N5CCOCC5)CC4)c3c21 | SRPK2 | enzyme activity, inhibitor | 10 µM |  | inhibition | 2% |
| CN(C(=O)N(C)c1ccc(C#N)cc1)c1ccccc1 | SRPK2 | kinase activity, inhibitor, Z'-LYTE | 10 µM, together with: ATP at apparent Km |  | inhibition | no inhibition |

For quick reference, copied from above:
| SMILES | target | test | setting | scale | quantity | value |
| --- | --- | --- | --- | --- | --- | --- |
| CNC(=O)C[C@H](Cc1ccc(C#N)cc1)NC(=O)c1cc(-c2ccc(CN[C@H](C)c3ccc(C)cc3)o2)ccc1Cl | SRPK2 | enzyme activity, inhibitor | 1 µM |  | activity vs control | 104% |
| Cc1ccc(-c2nn(-c3ccccc3)cc2C=NOCc2ccc3nc(-c4ccccc4)c(Nc4ccc(C(=O)O)cc4)n3c2)o1 | TDP1 | enzyme activity, inhibitor | 100 µM, unpurified compound |  | inhibition | 58.9% |
